Experimental data of several laboratories.
Protocols differ between the studies behind these lines. ± gives the spread as reported.

For `CN(C)c1cccc2c(S(=O)(=O)N3CCN(c4ccccc4)CC3)cccc12`, the Stokes shift was 162 nm (toluene; 20 °C).
For `O=C(O)CNCP(=O)(O)O`, “dose fraction in milk fat” read 0.97% (whole cow milk; 200 nM nominal).
`Fc1ccc([C@@H]2CCNC[C@H]2COc2ccc3c(c2)OCO3)cc1` — result for “List of Complaints score”: 0 score (measured: Freezing; healthy volunteers; oral, dose not given, given -1 h relative to LSD, with: LSD; direction not given).
Under “treatment-related adverse event incidence”, `COc1ccc(-c2c(-c3ccc(C#N)c(F)c3)nc(N3CCC(N)CC3)n(C)c2=O)cc1F` is recorded as 38% (measured: Thrombocytopenia; neuroendocrine neoplasm patients; oral, 60 mg, grade 3 to 4, dose expansion).
`COc1cc2c(Oc3ccc4[nH]c(C)cc4c3F)ccnc2cc1OCC1(N)CC1`: “grade 3 Diarrhoea” 0% (paediatric recurrent refractory sarcoma; 12 mg).
The gamma-glutamyltransferase of `Clc1ccc(-c2ccccc2)cc1` is reported as 1.3 ± 1.5 U/L (Sprague-Dawley rats, female, serum; inhalation, 23 µg/rat, 2 h after exposure).
`CO[C@H]1C[C@@H]2CC[C@@H](C)[C@@](O)(O2)C(=O)C(=O)N2CCCC[C@H]2C(=O)O[C@H]([C@H](C)C[C@@H]2CC[C@@H](OC(=O)NCCOCCOCCOCCOCCOCCOCCOCCOCCC(=O)N3CCc4cc(Cn5nc(-c6ccc7oc(N)nc7c6)c6c(N)ncnc65)ccc4C3)[C@H](OC)C2)C[C@@H](O)[C@H](C)/C=C(\C)[C@@H](O)[C@@H](OC)C(=O)[C@H](C)C[C@H](C)/C=C/C=C/C=C/1C`: “incidence of Vomiting TRAE” 0% (patients with advanced solid tumours; intravenous, 1.6 mg/3 mg weekly, any grade).
`C[C@]1(O)C[C@@](N)(c2ccc(-c3nc4n(c3-c3ccccc3)COc3ccncc3-4)cc2)C1`: “patients with Stomatitis TEAE” 0% (human, advanced or metastatic solid tumours; 24 mg intermittent, phase I dose escalation).
Under “incidence of TLS”, `COc1ncnn2ccc(-c3cnc4nc(C)n(Cc5nnc([C@@H](C)F)o5)c4c3)c12` is recorded as 7.1% (human patients; oral, dose not given, grade 1 adverse drug reaction).
`C[C@@H](NC(=O)N1C(=O)[C@H](Cc2ccnc(N)c2)[C@H]1C(=O)O)C1CCCCC1` — result for “incidence of elevated creatine phosphokinase”: 0% (healthy adult Chinese volunteers; continuous intravenous infusion, 0.6 mg/kg/h, 5-day infusion, CTCAE 5.0 grading).
`CC(C)C(=O)OC[C@H]1O[C@@H](n2ccc(NO)nc2=O)[C@H](O)[C@@H]1O` gave a freeze-thaw stability of 98.94 ± 0.91% (rat maternal placenta dialysate; 250 ng/mL, high concentration, three cycles, with: NHC 1000 ng/mL).
`CCN(CCO)CCCC(C)Nc1ccnc2cc(Cl)ccc12` (stereo not shown): “non-cardiac chest pain patients” 33% (newly diagnosed glioblastoma patients; oral, 800 mg/dose, grade 2, with: radiotherapy plus temozolomide).
For `CC(=O)c1c(C)c2cnc(Nc3ccc(C4CCN(CCS(C)(=O)=O)CC4)cn3)nc2n(C2CCCC2)c1=O`, the AUC(0-t) was 872 ng·h/mL (human patients, plasma; oral, 100 mg twice daily, day 1 single dose, with: fulvestrant).

Excerpt of the above:
`CO[C@H]1C[C@@H]2CC[C@@H](C)[C@@](O)(O2)C(=O)C(=O)N2CCCC[C@H]2C(=O)O[C@H]([C@H](C)C[C@@H]2CC[C@@H](OC(=O)NCCOCCOCCOCCOCCOCCOCCOCCOCCC(=O)N3CCc4cc(Cn5nc(-c6ccc7oc(N)nc7c6)c6c(N)ncnc65)ccc4C3)[C@H](OC)C2)C[C@@H](O)[C@H](C)/C=C(\C)[C@@H](O)[C@@H](OC)C(=O)[C@H](C)C[C@H](C)/C=C/C=C/C=C/1C`: “incidence of Vomiting TRAE” 0% (patients with advanced solid tumours; intravenous, 1.6 mg/3 mg weekly, any grade).
`C[C@]1(O)C[C@@](N)(c2ccc(-c3nc4n(c3-c3ccccc3)COc3ccncc3-4)cc2)C1`: “patients with Stomatitis TEAE” 0% (human, advanced or metastatic solid tumours; 24 mg intermittent, phase I dose escalation).
